Measurements from different studies.
Lines come from different studies, so protocols differ.
Organism: Escherichia coli

| Compound | assay | system | conditions | MIC |
| --- | --- | --- | --- | --- |
| CC(C)C[C@@H](NC(=O)[C@@H](CCCNC(=N)N)NC(=O)[C@H](N)CCCNC(=N)N)C(=O)N[C@H](CC(C)C)C(=O)N[C@H](CCCNC(=N)N)C(=O)N[C@H](CCCCN)C(=O)N[C@H](CC(C)C)C(=O)N[C@H](CCCCN)C(=O)NCC(=O)N[C@H](CCCCN)C(=O)N[C@H](CCCCN)C(=O)N[C@H](CC(C)C)C(=O)N[C@H](Cc1ccc(O)cc1)C(=O)N[C@H](CC(C)C)C(=O)N[C@H](Cc1ccc(O)cc1)C(=O)N[C@H](Cc1ccccc1)C(=O)N[C@H](CCCCN)C(=O)N[C@H](CC(C)C)C(=O)N[C@H](CCC(N)=O)C(=O)N[C@H](CC(C)C)C(=O)N[C@H](CC(C)C)C(=O)N[C@H](CCCCN)C(=O)N[C@H](CCCCN)C(N)=O | broth microdilution | KCTC 1682, Mueller-Hinton broth | together with: FeCl3 4 µM | 16 µM |
| CC[C@H](C)[C@H](NC(=O)[C@@H](CCCNC(=N)N)NC(=O)[C@H](CCCNC(=N)N)NC(=O)[C@@H]1CCCN1C(=O)[C@@H]1CCCN1C(=O)[C@H](CCCNC(=N)N)NC(=O)[C@@H]1CCCN1C(=O)[C@H](CCCNC(=N)N)NC(=O)[C@@H]1CCCN1C(=O)[C@H](CC(C)C)NC(=O)[C@H](Cc1ccc(O)cc1)NC(=O)[C@H](Cc1ccccc1)NC(=O)[C@@H]1CCCN1C(=O)[C@H](CCCCN)NC(=O)[C@H](CC(=O)O)NC(=O)[C@@H](N)C(C)C)C(=O)N[C@@H](Cc1ccc(O)cc1)C(=O)N[C@@H](CC(N)=O)C(=O)N[C@H](CCCNC(=N)N)C(N)=O | broth microdilution | ATCC 25922 | 18 h, 37 °C, 25% MHB2 | 16 µg/mL |
| OB(O)c1ccc(OCc2ccccc2)nc1F | bacterial growth | TEM-3 ESBL clinical isolate | without cefotaxime | > 2050 µg/mL |
| CC[C@H](C)[C@H](NC(=O)CNC(=O)[C@H](CC(=O)O)NC(=O)[C@H](CCCNC(=N)N)NC(=O)[C@@H](NC(=O)[C@H](Cc1c[nH]cn1)NC(=O)[C@H](CCC(N)=O)NC(=O)CNC(=O)[C@@H](NC(=O)[C@H](CCCNC(=N)N)NC(=O)[C@H](CCC(=O)O)NC(=O)[C@@H](NC(=O)[C@H](CCCCN)NC(=O)[C@H](CCCCN)NC(=O)[C@H](Cc1ccccc1)NC(=O)[C@@H](NC(=O)[C@H](CCCCN)NC(=O)[C@H](Cc1c[nH]c2ccccc12)NC(=O)[C@@H](N)CCCCN)[C@@H](C)CC)[C@@H](C)CC)C(C)C)C(C)C)C(=O)N[C@H](C(=O)N[C@@H](CCCCN)C(=O)N[C@@H](C)C(=O)NCC(=O)N[C@@H](CO)C(=O)N[C@@H](C)C(=O)N[C@H](C(=O)N[C@@H](CCC(N)=O)C(=O)N[C@H](C(=O)N[C@H](C(=O)NCC(=O)N[C@@H](CCC(N)=O)C(=O)N[C@@H](C)C(=O)N[C@@H](C)C(=O)N[C@@H](C)C(=O)N[C@H](C(=O)N[C@@H](C)C(=O)N[C@@H](CCCCN)C(N)=O)[C@@H](C)CC)C(C)C)C(C)C)C(C)C)[C@@H](C)CC | bacterial growth, broth microdilution | cation-adjusted Mueller Hinton broth | 18 h, 37 °C | ≤ 0.062 µM |
| CC[C@H](C)[C@H](NC(=O)[C@@H](CCCNC(=N)N)NC(=O)[C@H](CCCNC(=N)N)NC(=O)[C@@H]1CCCN1C(=O)[C@@H]1CCCN1C(=O)[C@H](CCCNC(=N)N)NC(=O)[C@@H]1CCCN1C(=O)[C@H](CCCNC(=N)N)NC(=O)[C@@H]1CCCN1C(=O)[C@H](CCSC)NC(=O)[C@H](Cc1ccc(O)cc1)NC(=O)[C@@H]1CCCN1C(=O)[C@@H]1CCCN1C(=O)[C@H](CCCCN)NC(=O)[C@H](CC(=O)O)NC(=O)[C@@H](N)C(C)C)C(=O)N[C@@H](Cc1ccc(O)cc1)C(=O)N[C@@H](CC(N)=O)C(=O)N[C@H](CCCNC(=N)N)C(N)=O | broth microdilution | ATCC 25922 | 18 h, 37 °C, 25% MHB2 | 8 µg/mL |
| CC[C@H](C)[C@H](NC(=O)CNC(=O)[C@H](CCC(N)=O)NC(=O)[C@@H](NC(=O)[C@H](C)NC(=O)[C@H](CCC(N)=O)NC(=O)[C@H](C)NC(=O)[C@@H](NC(=O)[C@H](C)NC(=O)[C@H](CCCNC(=N)N)NC(=O)[C@H](Cc1ccccc1)NC(=O)[C@H](C)NC(=O)[C@H](CC(N)=O)NC(=O)[C@H](CCCCN)NC(=O)CNC(=O)[C@H](C)NC(=O)[C@H](CCCCN)NC(=O)[C@H](CCC(=O)O)NC(=O)[C@@H](NC(=O)[C@H](CCCCN)NC(=O)[C@H](CCCCN)NC(=O)CN)[C@@H](C)CC)C(C)C)C(C)C)C(=O)NCC(=O)N[C@@H](Cc1ccccc1)C(=O)N[C@@H](C)C(=O)N[C@@H](CCCNC(=N)N)C(=O)N[C@@H](C)C(=O)N[C@@H](CC(C)C)C(=O)NCC(=O)N[C@H](C(=O)N[C@@H](C)C(=O)N[C@H](C(=O)N[C@@H](CC(=O)O)C(=O)O)C(C)C)[C@@H](C)CC | broth microdilution | K88, Mueller-Hinton broth | 37 °C | 17.6 µg/mL |
| Cc1ccc2nc(C)c(C(=O)C(=O)NCc3ccccc3)n2c1 | microbial growth, broth dilution |  |  | > 128 µM |
| CC[C@H](C)[C@H](NC(=O)[C@@H](NC(=O)[C@H](CCCCN)NC(=O)[C@H](CCC(N)=O)NC(=O)[C@@H](NC(=O)[C@H](Cc1c[nH]c2ccccc12)NC(=O)[C@H](CCCCN)NC(=O)[C@H](CCCCN)NC(=O)[C@H](CC(C)C)NC(=O)[C@H](CCCNC(=N)N)NC(=O)[C@H](Cc1ccccc1)NC(=O)[C@@H](N)C(C)C)[C@@H](C)CC)C(C)C)C(N)=O |  |  | 24 h, 37 °C, Mueller-Hinton broth, NaCl 150 mM | 128 µM |
| CC(=O)N[C@@H](CC(C)C)C(=O)N[C@H]1CSSC[C@@H](C(=O)N2CCC[C@H]2C(N)=O)NC(=O)[C@H]([C@@H](C)O)NC(=O)[C@H](C(C)C)NC(=O)[C@H]([C@@H](C)O)NC(=O)CNC(=O)[C@H](CC(C)C)NC(=O)[C@H](Cc2ccccc2)NC(=O)[C@H](Cc2ccc(O)cc2)NC(=O)[C@H](CC(C)C)NC(=O)[C@H](CCCCN)NC(=O)[C@H](Cc2ccccc2)NC(=O)[C@H](CCCNC(=N)N)NC(=O)[C@H](CCC(N)=O)NC(=O)[C@H](CC(C)C)NC(=O)[C@H](CCCCN)NC(=O)[C@@H]2CCCN2C(=O)[C@H](CCCCN)NC(=O)[C@H](C(C)C)NC(=O)[C@H](CC(N)=O)NC(=O)[C@H](Cc2ccc(O)cc2)NC(=O)[C@H]([C@@H](C)O)NC1=O | broth dilution | laboratory strain | 24 h | 1.25 to 2.5 µM |
| CC1(C)[C@H](NC(=O)/C(=N\OCCN)c2nsc(N)n2)C(=O)N1OS(=O)(=O)O | agar dilution | 08-85, mcr-1 |  | 32 µg/mL |
| CC[C@H](C)[C@@H]1NC(=O)CNC(=O)[C@H](CCCCN)NC(=O)[C@H](Cc2ccc(O)cc2)NC(=O)[C@@H]2CSSC[C@H](NC1=O)C(=O)N[C@@H](Cc1ccc(O)cc1)C(=O)N[C@@H](CCCCN)C(=O)N[C@@H](CCCCN)C(=O)N[C@H](C(=O)N[C@@H](CCCCN)C(N)=O)CSSC[C@H](NC(=O)[C@H](Cc1c[nH]c3ccccc13)NC(=O)[C@@H](N)CCCCN)C(=O)N[C@@H](Cc1ccccc1)C(=O)N[C@@H](CCCCN)C(=O)N[C@@H](C(C)C)C(=O)N2 | broth dilution | K12 BW25113 | 18 h, 37 °C | 1.8 µM |
| CC(C)C[C@H](NC(=O)[C@@H](NC(=O)[C@H](CCCCN)NC(=O)[C@H](CCCCN)NC(=O)[C@H](CC(C)C)NC(=O)[C@H](Cc1c[nH]c2ccccc12)NC(=O)[C@H](CCCCN)NC(=O)[C@H](Cc1c[nH]c2ccccc12)NC(=O)[C@H](CC(C)C)NC(=O)[C@H](CCCCN)NC(=O)[C@H](CCCCN)NC(=O)[C@@H](N)C(C)C)C(C)C)C(N)=O |  |  | 24 h, 37 °C, Mueller-Hinton broth, KCl 4.5 mM | 32 µM |

Excerpt of the above:
| Compound | assay | system | conditions | MIC |
| --- | --- | --- | --- | --- |
| CC[C@H](C)[C@H](NC(=O)[C@@H](CCCNC(=N)N)NC(=O)[C@H](CCCNC(=N)N)NC(=O)[C@@H]1CCCN1C(=O)[C@@H]1CCCN1C(=O)[C@H](CCCNC(=N)N)NC(=O)[C@@H]1CCCN1C(=O)[C@H](CCCNC(=N)N)NC(=O)[C@@H]1CCCN1C(=O)[C@H](CC(C)C)NC(=O)[C@H](Cc1ccc(O)cc1)NC(=O)[C@H](Cc1ccccc1)NC(=O)[C@@H]1CCCN1C(=O)[C@H](CCCCN)NC(=O)[C@H](CC(=O)O)NC(=O)[C@@H](N)C(C)C)C(=O)N[C@@H](Cc1ccc(O)cc1)C(=O)N[C@@H](CC(N)=O)C(=O)N[C@H](CCCNC(=N)N)C(N)=O | broth microdilution | ATCC 25922 | 18 h, 37 °C, 25% MHB2 | 16 µg/mL |
